Assay results gathered from unrelated publications.
Lines come from different studies, so protocols differ.

Under “patients with adverse event”, `C[C@@H]1OC(=O)NN=C1c1ccc(-c2ccc(F)cc2)c(C(F)(F)F)c1` is recorded as 50% (phase I trial, refers to: Ascites all grades; human patients; 20 mg loading then 1 mg daily).
`Cn1cncc1-c1c(F)cncc1NC(=O)c1c(N)nn2cc(F)cnc12` — result for “patients grade ≥3 Anemia”: 0% (human patients; oral, 180 mg once daily, 2 weeks on 1 week off).
`N[C@@H]1c2ccccc2OC12CCN(c1cnc3c(N4CCCc5ncccc54)n[nH]c3n1)CC2` — result for “patients with adverse event”: 27% (refers to: anemia; human advanced or metastatic solid tumours; oral, dose not given, phase Ia all doses).
`Cc1cn([C@H]2O[C@@H](CO[P@@](=O)(N[C@@H](C)C(=O)OC(C)C)Oc3ccccc3)[C@H](O)[C@H]2F)c(=O)[nH]c1=O` — result for “patients with TEAE”: 17% (refers to: Headache; human; 50 mg).
`CN[C@@H](C)C(=O)N[C@H]1CN(S(=O)(=O)c2cccc(S(=O)(=O)N3CC[C@H]4CC[C@@H](C(=O)NC(c5ccccc5)c5ccccc5)N4C(=O)[C@@H](NC(=O)[C@H](C)NC)C3)c2)CC[C@H]2CC[C@@H](C(=O)NC(c3ccccc3)c3ccccc3)N2C1=O` — result for “patients with treatment-related asthenia”: 0% (human, advanced solid tumours; 4 mg).
Under “patients with first-degree AV block”, `C=CCNc1c(O)cc2c(O)c1C[C@@H](C)C[C@H](OC)[C@H](O)[C@@H](C)/C=C(\C)[C@H](OC(N)=O)[C@@H](OC)/C=C\C=C(/C)C(=O)N2` is recorded as 22% (human unresectable metastatic GIST or sarcoma; intravenous, dose not given, treatment-emergent, all doses).
Under “patients with hypokalaemia”, `C=CC(=O)Nc1cc(Nc2nccc(Nc3cc(Cl)c(F)cc3C(C)(C)O)n2)c(OC)cc1N1CC[C@@H](N(C)C)C1` is recorded as 11.1% (human patients; oral, 100 mg, treatment-emergent adverse events).
Under “patients with taste disorder”, `COc1ncnn2ccc(-c3cnc4nc(C)n(Cc5nnc([C@@H](C)F)o5)c4c3)c12` is recorded as 0% (human; oral, dose not given, grade 3).
Under “patients with serious TEAE”, `COc1ccc(-c2c(-c3ccc(C#N)c(F)c3)nc(N3CCC(N)CC3)n(C)c2=O)cc1F` is recorded as 2% (refers to: acute kidney injury; human patients; oral, dose not given, dose escalation).
For `CN(C)C(=O)c1cc2cnc(Nc3ccc(N4CCNCC4)cn3)nc2n1C1CCCC1`, “patients with adverse event” read 0% (refers to: interstitial lung disease or pneumonitis; human, HR+/HER2− advanced breast cancer; oral, dose not given, grade 3, CTCAE v4.03).
`O=C1Nc2cc3[nH]nc(-c4ccncc4)c3cc2CN1Cc1ccccc1`: “patients with photopsia” 0% (CTCAE v4.03; human, relapsed or refractory advanced solid tumours; intravenous, 3.6 mg/kg).
`C[C@]1(O)C[C@@](N)(c2ccc(-c3nc4n(c3-c3ccccc3)COc3ccncc3-4)cc2)C1` — result for “patients with Dyspnea TEAE”: 25% (human, advanced or metastatic solid tumours; 24 mg intermittent, phase I dose escalation).
`CNC(=O)c1cc(Oc2ccc(NC(=O)Nc3cc(C(C)(C)C)nn3-c3ccc4ncccc4c3)c(F)c2)ccn1`: “patients with related serious Cardiomyopathy AE” 2% (human, trial; oral, dose not given, all doses).

Excerpt of the above:
For `CN(C)C(=O)c1cc2cnc(Nc3ccc(N4CCNCC4)cn3)nc2n1C1CCCC1`, “patients with adverse event” read 0% (refers to: interstitial lung disease or pneumonitis; human, HR+/HER2− advanced breast cancer; oral, dose not given, grade 3, CTCAE v4.03).
